# Measurements pooled from the literature.
# ± gives the spread as reported.
Structure (SMILES),test,system,setting,recovery [%]
CC[C@@H]1C(=O)N(C)c2cnc(Nc3ccc(C(=O)NC4CCN(C)CC4)cc3OC)nc2N1C1CCCC1,,Caco-2 monolayer,"10 µM, 2 h",58.2
CC(=O)N1CCN(c2ccc(OCC3COC(Cn4ccnc4)(c4ccc(Cl)cc4Cl)O3)cc2)CC1 (stereo not drawn),equilibrium dialysis,human plasma,"1 µM, 6 h",107
CC(C)(C)c1ccc(O)c(CN(Cc2cc(C(C)(C)C)ccc2O)C2CCC(NC(N)=O)CC2)c1 (stereo not drawn),,mouse brain,"2000 ng/g, 24 h, 25 °C, short-term storage",99.78 ± 0.45
C=CC(=O)Nc1cc(Nc2nccc(-c3cn(C)c4ccccc34)n2)c(OC)cc1N(C)CCN(C)C,storage stability,human plasma,"24 h, on ice, high QC level",82.8
CNC(=C[N+](=O)[O-])NCCSCc1ccc(CN(C)C)o1,,Caco-2 monolayer,"10 µM, 2 h",91.3
CC(=O)N[C@H]1[C@H]([C@H](O)[C@H](O)CO)OC(C(=O)O)=C[C@@H]1N=C(N)N,HPLC,HBSS,"0.1 µg/mL, time not given, three freeze-thaw cycles",102
O=C1CC[C@H](N2Cc3cc(N4CCN(CC5CCN(c6ccc([C@@H]7c8ccc(O)cc8CC[C@@H]7c7ccccc7)cc6)CC5)CC4)ccc3C2=O)C(=O)N1,rapid equilibrium dialysis,human liver microsomes,"2.5 µM, 6 h",106
CN(Cc1cnc2nc(N)nc(N)c2n1)c1ccc(C(=O)N[C@@H](CCC(=O)O)C(=O)O)cc1,lipid PAMPA,artificial lipid membrane,"10 µM, 16 h",< 101
C=CC(=O)Nc1cc(Nc2nccc(-c3cn(C)c4ccccc34)n2)c(OCC(F)(F)F)nc1N(C)CCN(C)C,rapid equilibrium dialysis,human plasma,"0.1 µg/mL, time not given",77.7

# A few entries again:
Structure (SMILES),test,system,setting,recovery [%]
CN(Cc1cnc2nc(N)nc(N)c2n1)c1ccc(C(=O)N[C@@H](CCC(=O)O)C(=O)O)cc1,lipid PAMPA,artificial lipid membrane,"10 µM, 16 h",< 101
